Published values of several laboratories.
Lines come from different studies, so protocols differ. Numbers after ± are the reported error.

SMILES	assay	test system	setting	how to read	measurement	result
C#Cc1cccc2c1[nH]c1cnc(C(=O)OC(C)(C)C)cc12	–	Wistar rat, brain	intraperitoneal, 10 mg/kg daily for 4 days, 20 min after last dose, together with: diazepam 2 mg/kg	–	brain concentration	72.3 ± 16.3 nM
CCc1cccc(C)c1N(C(=O)CCl)C(C)COC (centres unmarked)	LC-MS/MS	herbicide solution	2 h, 40 °C, together with: 365 nm UV exposure	–	remaining amount	46.7 ± 26.1%
CCCCCOc1ccc(-c2ccc(-c3ccc(C(=O)N[C@H]4C[C@@H](O)[C@@H](O)NC(=O)[C@@H]5[C@@H](O)[C@@H](C)CN5C(=O)[C@H]([C@@H](C)O)NC(=O)[C@H]([C@H](O)[C@@H](O)c5ccc(O)cc5)NC(=O)[C@@H]5C[C@@H](O)CN5C(=O)[C@H]([C@@H](C)O)NC4=O)cc3)cc2)cc1	population PK model	patients, typical weight sample D kg	intravenous	–	inter-compartmental clearance	2.37 L/h
O=c1[nH]c(Cc2ccccn2)nc2c1cnn2C1CCOCC1	–	male human, plasma	oral, 5 mg, single dose	–	half-life	1.18 h
CC(=O)N[C@@H]1C(OC(C)=O)O[C@H](COC(C)=O)[C@@H](OC(C)=O)[C@@H]1OC(C)=O (some centres unmarked)	sialic acid production	fetal bovine serum	together with: 100% serum pre-incubation	–	serum stability time	≥ 48 h
CCCCCOc1ccc(-c2cc(-c3ccc(C(=O)N[C@H]4C[C@@H](O)[C@@H](O)NC(=O)[C@@H]5[C@@H](O)[C@@H](C)CN5C(=O)[C@H]([C@H](O)CC(N)=O)NC(=O)[C@H]([C@H](O)[C@@H](O)c5ccc(O)c(OS(=O)(=O)O)c5)NC(=O)[C@@H]5C[C@@H](O)CN5C(=O)[C@H]([C@@H](C)O)NC4=O)cc3)no2)cc1	population PK model	human infants, plasma	dose not given	–	central volume	0.61 L/1.8 kg
Cc1c(P(=S)(c2ccccc2)c2ccccc2)n2ccccc2[n+]1C/C=C/c1ccccc1	–	mouse, brain	intraperitoneal, 10 mg/kg, 1 h	–	concentration	21 ng/g
N[C@H](Cc1ccc(F)cc1)C(=O)O	in situ brain perfusion	CF-1 mice, wild type	1 µM, 60-180 s	–	brain uptake clearance Kin	8.4 mL/100 g/min
CC(C)C[C@@H](NC(=O)[C@@H](Cc1ccccc1)NC(=O)[C@H](N)Cc1ccccc1)C(=O)N[C@H](CCCCN)C(=O)N1CCC(N)(C(=O)O)CC1	item: total radioactivity	human subjects on haemodialysis	intravenous, time not given	–	dose recovered in feces	58.8%
[123I]c1cncc(OC[C@@H]2CCN2)c1	SPECT	human, temporal lobe	intravenous bolus, 8.1 mCi	reference: plasma	tissue/plasma ratio	8.2
COc1ccc(C[C@@H]2NC(=O)[C@H]([C@@H](C)O)NC(=O)[C@@H]3[C@@H]4CCN3C(=O)[C@@H]3Cc5cn(c6ccc(F)cc56)CCCCCCN(Cc5ccc(cc5)CCNC(=O)[C@]5(C)CCCN5C2=O)C(=O)CCC(=O)N[C@@H](C)C(=O)N[C@H](CNC(=O)CCCCC[N+](C)(C)C)C(=O)N[C@@H](Cc2cccc(c2)CNC(=O)CO4)C(=O)N3)cc1	–	fasted healthy humans, plasma	oral, 200 mg single dose, with 1800 mg Labrasol, geometric mean	–	CL/F	1720 mL/min
CN[C@@](C)(C[18F])C(=O)O	–	SCID mouse SK-OV-3 xenograft, blood	60 min, post injection	–	tissue uptake	0.7 ± 0.1 %ID/g
[O-][S+]1CCc2nc(N3CCC(c4ncc(Cl)cn4)CC3)nc(NC3(CO)CCC3)c21 (centres unmarked)	–	human, plasma	oral, 12 mg twice daily, fed, geometric mean	–	Cmax at steady state	348 nM
O=C(O)CC[C@H](NC(=O)CNC(=O)[C@@H]1C[C@@H](O)CN1)C(=O)N[C@@H](Cc1ccccc1)C(=O)NCC(=O)O	–	ICR mouse, tail bleeding	oral, 450 µmol/kg	reference: vehicle	thymus index	no effect
Cn1cc(C2=C(c3cn(C4CCN(Cc5ccccn5)CC4)c4ccccc34)C(=O)NC2=O)c2ccccc21	–	human, cancer patients, plasma	oral, 500 mg once daily, cycle 1 day 22, together with: erlotinib 150 mg daily	–	CL/F at steady state	53.8 L/h
O[C@H]1CCCN[C@@H]1CCCn1cnc2c(Cl)c(Cl)ccc21	–	monkey	multiple-dose up to 28 days	–	NOAEL	80 mg/kg/day
O=C(N[C@@H](Cn1ccnc1)c1ccc(-c2ccc(F)cc2)cc1F)c1ccc(-c2nnc(-c3ccccc3)o2)cc1	–	mouse, plasma	oral, 25 mg/kg, HPCD formulation	–	AUC	64 ng·h/mL
Oc1ccc2ccc3cccc4ccc1c2c34	HPLC-fluorescence	Wistar rat, male, duodenum	oral, 4 mg/kg PY, 24 h	–	tissue concentration	1100 ± 80 ng/g
CC(=O)N[C@@H](Cc1c[nH]c2ccccc12)C(=O)N[C@H](C(=O)N[C@@H](Cc1c[nH]c2ccccc12)C(=O)NCC(=O)N1CCC[C@H]1C(=O)NCC(=O)N[C@H](C(=O)NCC(=O)N[C@@H](CCCCN)C(=O)N[C@@H](Cc1c[nH]c2ccccc12)C(=O)N[C@H](C(=O)N[C@@H](Cc1c[nH]c2ccccc12)C(N)=O)C(C)C)[C@@H](C)O)C(C)C	circular dichroism	phosphate buffer	pH 6.5	–	Tm	23.9 ± 2.5 °C
CC[C@H](C)[C@H](NC(=O)[C@H](CCCCN)NC(=O)[C@H](CCCCN)NC(=O)[C@H](C)NC(=O)[C@@H](NC(=O)[C@H](CCCCN)NC(=O)[C@H](C)NC(=O)[C@H](C)NC(=O)[C@@H](NC(=O)CNC(=O)[C@H](C)NC(=O)[C@@H](NC(=O)[C@H](CCCCN)NC(=O)[C@@H]1CCCN1C(=O)[C@H](Cc1ccccc1)NC(=O)[C@@H](N)Cc1ccccc1)C(C)C)C(C)C)C(C)C)C(=O)N[C@@H](Cc1ccccc1)C(=O)N[C@H]1CSSC[C@@H](C(=O)O)NC(=O)[C@H](CCCCN)NC(=O)[C@H](CCCCN)NC(=O)[C@H](CO)NC(=O)[C@H]([C@@H](C)CC)NC(=O)[C@H]([C@@H](C)O)NC1=O	haemolysis	horse erythrocytes	2 h, 37 °C	–	HC50	41.3 µM
CC(=O)N[C@H](CCCCNC(=O)C(C)F)C(=O)N[C@@H](CS)C(=O)N[C@@H](CS)C(=O)N[C@@H](CCC(=O)O)C(=O)N[C@@H](Cc1c[nH]cn1)C(=O)N[C@H](Cc1ccccc1)C(=O)N[C@@H](CCCNC(=N)N)C(=O)N[C@@H](Cc1c[nH]c2ccccc12)C(=O)N[C@@H](CS)C(=O)N[C@@H](CCCNC(=N)N)C(=O)N1CCC[C@H]1C(=O)N[C@H](C(N)=O)C(C)C (some centres unmarked) [fluorine-18 labelled]	–	C57BL/6 mice, male, B16-F10 tumour, tumor	intravenous, 4 h	–	tissue uptake	1.09 ± 0.23 %ID/g
CC(C)C[C@H](NC(=O)[C@H](CCC(=O)O)NC(=O)[C@H](CCC(=O)O)NC(=O)[C@H](CC(=O)O)NC(=O)[C@H](CCC(=O)O)NC(=O)[C@H](CCC(=O)O)NC(=O)[C@H](CCC(=O)O)NC(=O)[C@@H](N)CC(=O)O)C(=O)O	–	rat, CSF	intravenous, 11.0 mg/kg, 30 min	–	concentration	43.3 ng/mL
CCOc1cc(Oc2ccc(C(F)(F)F)cc2Cl)ccc1[N+](=O)[O-]	–	Sprague-Dawley rat, male, thyroid gland	oral, 3.25 to 62.5 mg/kg daily, 8 days	–	tissue concentration	250 to 5300 ng/g

Some of these lines once more:
SMILES	assay	test system	setting	how to read	measurement	result
CN[C@@](C)(C[18F])C(=O)O	–	SCID mouse SK-OV-3 xenograft, blood	60 min, post injection	–	tissue uptake	0.7 ± 0.1 %ID/g
[O-][S+]1CCc2nc(N3CCC(c4ncc(Cl)cn4)CC3)nc(NC3(CO)CCC3)c21 (centres unmarked)	–	human, plasma	oral, 12 mg twice daily, fed, geometric mean	–	Cmax at steady state	348 nM
O=C(O)CC[C@H](NC(=O)CNC(=O)[C@@H]1C[C@@H](O)CN1)C(=O)N[C@@H](Cc1ccccc1)C(=O)NCC(=O)O	–	ICR mouse, tail bleeding	oral, 450 µmol/kg	reference: vehicle	thymus index	no effect
